Assay results collected from several papers.
± marks the error that the study gave.
Organism: Plasmodium falciparum

`N[C@@H](CCC(=O)N[C@@H](CCC(=O)N(O)c1ccc(Br)cc1)C(=O)NCC(=O)O)C(=O)O` has an IC50 of 70000 nM (blood-stage growth, Giemsa-stained smears; 3D7; 48 h, asynchronous culture).
With `CC(C)C1=CC(=CNC23CC4CC(CC(C4)C2)C3)N=C1c1ccc[nH]1` the IC50 was 26 nM (parasite growth, SYBR Green I fluorescence; D6, chloroquine-sensitive).
For `Cc1cc(N2CC[C@@](C#N)(C3(C)CC3)C2=O)cc(C(=O)NCc2cc(F)cc(-c3cnn(C)c3)c2)n1`, the IC50 was 13 nM (parasite growth; NF54; liver stage).
The IC50 of `COC(=O)[C@@H]1Cc2c([nH]c3ccccc23)[C@H](c2cccs2)N1` is reported as 6.84 µg/mL (parasite growth; 3D7; 48 h, blood stage).
`O=C(C1CCN(c2nnnn2-c2cccnc2)CC1)N1CCCc2ccccc21` has an IC50 of 2400 nM (parasite growth, SYBR Green; 3D7; 72 h, blood stage).
For `C#CCOc1ccc(C=NNC(=N)NN=Cc2ccc(OCC#C)cc2)cc1`, the IC50 was 102 nM (parasite growth, SYBR Green; D6; 72 h, blood stage).
`C#CCOc1cc(C(=O)C2=C(C)C(=O)c3ccccc3C2=O)ccc1C(F)(F)F` gave an IC50 of greater than 5000 nM (parasite growth, SYBR Green; Dd2; 72 h, synchronized ring stage).
`Cc1nn(CCO)c2ncc(C(=O)c3cc(Cl)ccc3O)cc12` has an IC50 of 6000 nM (parasite growth; NF54; 72 h, blood stage).
`C[N+]1=C2C=C(NCCc3c[nH]c4ccccc34)C(=O)c3[nH]cc(c32)CC1` has an IC50 of 9 nM (parasite growth, SYBR Green; 3D7; blood stage).
The IC50 of `CN(C(=O)c1ccn2ncc(-c3ccc(C(N)=O)cc3)c2c1)c1ccc(C#N)cn1` is reported as 3 ± 1 nM (parasite growth; 3D7).
`COC(=O)[C@@H]1Cc2c([nH]c3ccccc23)[C@@H](c2cccnc2)N1` gave an IC50 of 3.07 µg/mL (parasite growth; 3D7; 48 h, blood stage).
The IC50 of `O=C(C1CCN(c2nnnn2-c2ccccc2Cl)CC1)N1CCCc2ccccc21` is reported as 1100 nM (parasite growth, SYBR Green; 3D7; 72 h, blood stage).
For `C(=NC12CC3CC(CC(C3)C1)C2)c1cc(-c2ccc[nH]2)c[nH]1`, the IC50 was greater than 2500 nM (parasite growth, SYBR Green I fluorescence; D6, chloroquine-sensitive).
With `N[C@@H](CNC(=O)N[C@@H](CCC(=O)N(O)c1ccc(Br)cc1)C(=O)NCC(=O)O)C(=O)O` the IC50 was 70000 nM (blood-stage growth, Giemsa-stained smears; 3D7; 48 h, synchronous culture).
The IC50 of `CCCCCCCCCCCCCCCCC1CC(=O)NCCCN(C)CCCCN(C)CCCN1C` (stereo not drawn) is reported as 0.14 µg/mL (parasite LDH; D6 chloroquine-sensitive; 72 h).
`c1ccc2c(NCCNc3ncnc4cc(OCC5CCN(CCNc6ccnc7ccccc67)CC5)ccc34)cccc2c1` has an IC50 of 60 nM (parasite growth; NF54; blood stage).
With `CC(C)CCOC1C(C)C2C(C=CC3C(C)C=CC=CC(C)OC(=O)C(C)C(=O)C(Cl)(Cl)C(=O)C32)CC1(C)O` (stereo not drawn) the IC50 was greater than 11000 nM (parasite growth, ELISA; 3D7; blood stage).
The IC50 of `CC[C@@H](C)[C@@H]1NC(=O)[C@@H](Cc2ccccc2)NC(=O)[C@@H]2CCCN2C(=O)[C@H]([C@H](C)CC)NC(=O)[C@@H](Cc2ccccc2)NC(=O)[C@@H]2CCCN2C1=O` is reported as 2000 nM (3D7).
With `COc1ccc2nc3cc(Cl)ccc3c(N3C(=O)c4ccc5c6c(ccc(c46)C3=O)C(=O)N(CCN(C)C)C5=O)c2c1` the IC50 was 419 nM (parasite growth, SYBR Green; 3D7; 72 h, blood stage).
`COc1cccc2c(-c3ccc(O)c4c3CCN=C4)ccc(OC(C)C)c12` gave an IC50 of 517 nM (parasite growth, SYBR Green; NF54; 96 h, blood stage).
The IC50 of `CC1C=CC=CC(C)C2C=CC3CC(C)(O)C(F)C(C)C3C2C(=O)C(Cl)(Cl)C(=O)C(C)C(=O)O1` (stereo not drawn) is reported as 135 nM (parasite growth, ELISA; 3D7; blood stage).
With `COc1ccc2c(c1)C1CC(C)(N2)c2c(C)nc3ccc(OC)cc3c21` (stereo not drawn) the IC50 was 38100 nM (asexual stage growth; INDO; 12 h, trophozoite stage).
`N#Cc1c(-c2ccco2)[n+]([O-])c2ccc(C(F)(F)F)cc2[n+]1[O-]` has an IC50 of 530 ± 250 nM (parasite growth, [3H]hypoxanthine incorporation; 3D7 chloroquine-sensitive).
`N[C@@H](CCC(=O)N[C@@H](CCC(=O)N(O)c1ccc(Br)cc1)C(=O)NCC(=O)OC1CCCC1)C(=O)OC1CCCC1` gave an IC50 of 30000 nM (parasite growth, imaging; 3D7; 48 h, blood stage).
For `Clc1ccc(C2=CC(c3ccc[nH]3)=NC2=CNC23CC4CC(CC(C4)C2)C3)cc1`, the IC50 was greater than 250 nM (parasite growth, SYBR Green I fluorescence; D6, chloroquine-sensitive).
For `CCCCCCCCCC1CC2CCC3CC(CCCCCCCCC)NC(=N1)N23` (stereo not drawn), the IC50 was 1430 nM (parasite growth, plasmodial LDH; W2 chloroquine-resistant).
`Clc1ccc(C2=CC(c3ccc[nH]3)=NC2=CNC2CCCC2)cc1` has an IC50 of 1220 nM (parasite growth, SYBR Green I fluorescence; D6, chloroquine-sensitive).
For `CNC(=O)CNc1cnc2ccc(-c3ccc(OC)c(OC)c3)cc2n1`, the IC50 was roughly 71 nM (parasite growth, SYBR Green; blood stage).
With `Cn1c(N2CCN(S(=O)(=O)c3ccc(Cl)cc3)CC2)nc2ccccc21` the IC50 was greater than 10000 nM (parasite growth; NF54; blood stage).
The IC50 of `COc1cccc2c(-c3ccc(O)c4c3C[C@@H](C)N[C@@H]4C)c(C)cc(O)c12` is reported as 42 nM (parasite growth, SYBR Green; NF54; 96 h, blood stage).
With `CC1C=CC=CC(C)C2C=CC3CC(C)(Cl)C(O)C(C)C3C2C(=O)C(Cl)(Cl)C(=O)C(C)C(=O)O1` (stereo not drawn) the IC50 was 102 nM (parasite growth, ELISA; 3D7; blood stage).
With `CCC1=CC(c2ccc[nH]2)=NC1=CNC12CC3CC(CC(C3)C1)C2` the IC50 was 2.5 nM (parasite growth, SYBR Green I fluorescence; D6, chloroquine-sensitive).
With `Cc1ccc2c(c1)[n+]([O-])c(C#N)c(-c1cccs1)[n+]2[O-]` the IC50 was 2860 ± 460 nM (parasite growth, [3H]hypoxanthine incorporation; 3D7 chloroquine-sensitive).
The IC50 of `CCN(CC)C/C=C\CNc1ccnc2cc(Cl)ccc12` is reported as 262 ± 30 nM (parasite growth; Dd2).
`CCC1=CC(=CNC2CCCCCC2)N=C1c1ccc[nH]1` has an IC50 of 1300 nM (parasite growth, SYBR Green I fluorescence; D6, chloroquine-sensitive).
With `O=[N+]([O-])c1cccc(C(=S)Nc2ccccc2)c1` the IC50 was 109000 nM (parasite growth, SYBR Green; 3D7; 96 h, blood stage).
With `COc1cccc2c(-c3ccc(O)c4c3CC(C)(C)N=C4)ccc(OC(C)C)c12` the IC50 was 715 nM (parasite growth, SYBR Green; NF54; 96 h, blood stage).
For `CCCCN1C(=O)c2ccc3c4c(ccc(c24)C1=O)C(=O)N(c1c2ccc(Cl)cc2nc2ccc(OC)cc12)C3=O`, the IC50 was 3780 nM (parasite growth, SYBR Green; 3D7; 72 h, blood stage).
`CNC(=O)c1ccc(-c2cnc3cnc(C(=O)N(C)c4ccc(Cl)cc4)cn23)cc1` gave an IC50 of 108 ± 61 nM (parasite growth; 3D7).
With `CC(=O)O[C@H]1C[C@@H]2[C@@]3(C)C=CC(=O)C(C)(C)[C@H]3C[C@@H](O)[C@@]2(C)C2=CC[C@@H](c3ccoc3)[C@@]21C` the IC50 was 31000 ± 200 nM ([3H]hypoxanthine incorporation; D6, chloroquine-sensitive).
With `COc1ccc2c(=O)c3cc(OS(=O)(=O)C(F)(F)F)ccc3[nH]c2c1` the IC50 was 57.7 nM (parasite growth, SYBR Green; D6; blood stage).
`COc1cc2c(NC3CCN(C)CC3)nc(N3CCCN(C)CC3)nc2cc1OCc1ccccc1` has an IC50 of 42.7 nM (parasite growth, SYBR Green I; 3D7; 3 days).
The IC50 of `CCNCC#CCNc1ccnc2cc(Cl)ccc12` is reported as 23 nM (parasite growth; 3D7; blood stage).
For `CCCCCC1CC2CCCC3CC(C)N=C(N1)N32` (stereo not drawn), the IC50 was 880 nM (parasite growth, plasmodial LDH; D6 chloroquine-sensitive).
`N#Cc1ccc2c(c1)CCCN2C(=O)C1CCN(c2nnnn2-c2ccccc2)CC1` has an IC50 of greater than 10000 nM (parasite growth, SYBR Green; 3D7; 72 h, blood stage).
With `CCCCOC1C(C)C2C(C=CC3C(C)C=CC=CC(C)OC(=O)C(C)C(=O)C(Cl)(Cl)C(=O)C32)CC1(C)O` (stereo not drawn) the IC50 was greater than 11000 nM (parasite growth, ELISA; 3D7; blood stage).
For `COc1ccc(-c2ccc(OC(C)C)c3c(OC)cccc23)c2c1C=NC(C)(C)C2`, the IC50 was 6090 nM (parasite growth, SYBR Green; NF54; 96 h, blood stage).
For `CN(C)CCCOc1ccc2cc1Oc1ccc(cc1)CC1c3c(cc(OCCCN(C)C)c4c3Oc3cc5c(cc3O4)CCN(C)C5C2)CCN1C` (stereo not drawn), the IC50 was 123 nM (parasite growth, SYBR Green; NF54; 72 h, blood stage).
With `O=C(C1CCN(c2nnnn2-c2ccncc2)CC1)N1CCCc2ccccc21` the IC50 was 3700 nM (parasite growth, SYBR Green; 3D7; 72 h, blood stage).
For `N#Cc1c(-c2ccco2)[n+]([O-])c2ccc(F)cc2[n+]1[O-]`, the IC50 was 770 ± 220 nM (parasite growth, [3H]hypoxanthine incorporation; 3D7 chloroquine-sensitive).
The IC50 of `CCC1=CC(=CNC2CCCCCCC2)N=C1c1ccc[nH]1` is reported as 1280 nM (parasite growth, SYBR Green I fluorescence; D6, chloroquine-sensitive).
With `O=C(C1CCN(c2nnnn2-c2ccccc2)CC1)N1CCCc2ccccc21` the IC50 was 895 nM (parasite growth; DD2; blood stage).
The IC50 of `N#Cc1c(-c2cccs2)[n+]([O-])c2ccc(C(F)(F)F)cc2[n+]1[O-]` is reported as 890 ± 360 nM (parasite growth, [3H]hypoxanthine incorporation; 3D7 chloroquine-sensitive).
`COC1=CC(c2ccc[nH]2)=NC1=CNC1CCC1` gave an IC50 of 591 nM (parasite growth, SYBR Green I fluorescence; D6, chloroquine-sensitive).

A few entries again:
`N[C@@H](CCC(=O)N[C@@H](CCC(=O)N(O)c1ccc(Br)cc1)C(=O)NCC(=O)O)C(=O)O` has an IC50 of 70000 nM (blood-stage growth, Giemsa-stained smears; 3D7; 48 h, asynchronous culture).
`Clc1ccc(C2=CC(c3ccc[nH]3)=NC2=CNC2CCCC2)cc1` has an IC50 of 1220 nM (parasite growth, SYBR Green I fluorescence; D6, chloroquine-sensitive).
With `CC(C)C1=CC(=CNC23CC4CC(CC(C4)C2)C3)N=C1c1ccc[nH]1` the IC50 was 26 nM (parasite growth, SYBR Green I fluorescence; D6, chloroquine-sensitive).
`N[C@@H](CCC(=O)N[C@@H](CCC(=O)N(O)c1ccc(Br)cc1)C(=O)NCC(=O)OC1CCCC1)C(=O)OC1CCCC1` gave an IC50 of 30000 nM (parasite growth, imaging; 3D7; 48 h, blood stage).
The IC50 of `O=C(C1CCN(c2nnnn2-c2ccccc2Cl)CC1)N1CCCc2ccccc21` is reported as 1100 nM (parasite growth, SYBR Green; 3D7; 72 h, blood stage).
`N#Cc1c(-c2ccco2)[n+]([O-])c2ccc(C(F)(F)F)cc2[n+]1[O-]` has an IC50 of 530 ± 250 nM (parasite growth, [3H]hypoxanthine incorporation; 3D7 chloroquine-sensitive).
